# Assay results collected from several papers.
# Compare with care: the assays were run in different laboratories. No end group written: not given here.
# B1: erenumab; V domains shown; sequence looked up; VH QVQLVESGGGVVQPGRSLRLSCAASGFTFSSFGMHWVRQAPGKGLEWVAVISFDGSIKYSVDSVKGRFTISRDNSKNTLFLQMNSLRAEDTAVYYCARDRLNYYDSSGYYHYKYYGMAVWGQGTTVTVSS; VL QSVLTQPPSVSAAPGQKVTISCSGSSSNIGNNYVSWYQQLPGTAPKLLIYDNNKRPSGIPDRFSGSKSGTSTTLGITGLQTGDEADYYCGTWDSRLSAVVFGGGTKLTVL
# B2: rof 1-84 Y13A (Escherichia coli, UniProt P0AFW8); chain MNDTYQPINCDDADNLELACQHHLMLTLELKDGEKLQAKASDLVSRKNVEYLVVEAAGETRELRLDKITSFSHPEIGTVVVSES
# B3: TIMP3 24-144 (Homo sapiens, UniProt P35625); sequence looked up; chain CTCSPSHPQDAFCNSDIVIRAKVVGKKLVKEGPFGTLVYTIKQMKMYRGFTKMPHVQYIHTEASESLCGLKLEVNKYQYLLTGRVYDGKMYTGLCNFVERWDQLTLSQRKGLNYRYHLGCN
# B4: UGT1A9 (Homo sapiens, UniProt O60656); chain GKLLVVPMDGSHWFTMRSVVEKLILRGHEVVVVMPEVSWQLGRSLNCTVKTYSTSYTLEDLDREFKAFAHAQWKAQVRSIYSLLMGSYNDIFDLFFSNCRSLFKDKKLVEYLKESSFDAVFLDPFDNCGLIVAKYFSLPSVVFARGILCHYLEEGAQCPAPLSYVPRILLGFSDAMTFKERVRNHIMHLEEHLLCHRFFKNALEIASEILQTPVTEYDLYSHTSIWLLRTDFVLDYPKPVMPNMIFIGGINCHQGKPLPMEFEAYINASGEHGIVVFSLGSMVSEIPEKKAMAIADALGKIPQTVLWRYTGTRPSNLANNTILVKWLPQNDLLGHPMTRAFITHAGSHGVYESICNGVPMVMMPLFGDQMDNAKRMETKGAGVTLNVLEMTSEDLENALKAVINDKSYKENIMRLSSLHKDRPVEPLDLAVFWVEFVMRHKGAPHLRPAAHDLTWYQYHSLDVIGFLLAVVLTVAFITFKCCAYGYRKCLGKKGRVKKAHKSKTH
# B5: CXCL9 (UniProt Q07325); chain TPVVRKGRCSCISTNQGTIHLQSLKDLKQFAPSPSCEKIEIIATLKNGVQTCLNPDSADVKELIKKWEKQVSQKKKQKNGKKHQKKKVLKVRKSQRSRQKKTT
# B6: CDKN1A 9-84 del46-48 (Homo sapiens, UniProt P38936); sequence looked up; chain RQNPCGSKACRRLFGPVDSEQLSRDCDALMAGCIQEAWNFDFVTETPLEGDFAWERVRGLGLPKLYLPTGPRR
Substance,target or system,assay,system,setting,scale,quantity,result
"COX6B1 (Bos taurus, UniProt P00429)","cytochrome c oxidase eight-subunit core (Bos taurus, UniProt P00396)","anion exchange chromatography, RP-HPLC, SDS-PAGE",,"120 min, pH 7.2, room temperature, apparent, partly coupled to unfolding",,urea midpoint for subunit dissociation,3.5 M
"PRKCB (Homo sapiens, UniProt P05771-2)","AKAP5 1-81 (Homo sapiens, UniProt P24588)","CKAR response after Oxo-M, FRET",CHO,added: BIS I,,half-time of inhibition,9.2 min
B1 (erenumab),CALCRL/RAMP1 on cells (Homo sapiens),"cAMP production, antagonist, Schild analysis","antibody, Cos7",added: αCGRP,,pKB,9.04
"TPDYAMQLMNDKKLMSSLPNFSGIFNHLERLLDEEISRVRKDMYNDTLNGSTEK (Qki 14-67 C35S/L18A (Mus musculus, UniProt Q9QYS9))",itself,CD thermal melting,,50 µM,,melting temperature,49 °C
"Camk2a, pT286 (Mus musculus, UniProt P11798)",Cacnb2 β2a L493A (Rattus norvegicus),plate-binding assay,,L493A mutant,"baseline: wild-type His-β2a, higher = greater reduction in binding",relative binding,50%
NRTN fragment E135S/R139S (Homo sapiens),"RET 29-635 (Homo sapiens, UniProt P07949)","MAPK signaling, SRE luciferase reporter, agonist",TGW neuroblastoma,,,EC50,3.2 ng/mL
Ppp2r5b E153R (Rattus norvegicus),"GST-TH 31-164, pS40 (UniProt P04177)",Ser40 dephosphorylation,"COS, immunoisolated holoenzyme",,"baseline: wild type, higher = less activity",relative dephosphorylation inhibition,50 % inhibition
B2 (rof 1-84 Y13A),"rho 1-419 (Escherichia coli, UniProt P0AG30)","rho termination, inhibitor",,,lower = more inhibition,terminated transcripts,90%
"INS mature A and B chains, PEG 5000 on B29 (Homo sapiens)","Insr (Mus musculus, UniProt P15208)","AKT Ser473 phosphorylation, agonist, HTRF",C2C12,30 min,,EC50,110 nM
B3 (TIMP3 24-144),"ADAMTS5 262-930 (Homo sapiens, UniProt Q9UNA0)","inhibitor, steady-state kinetics",,"1 h, pH 7.5, 37 °C",,Ki,0.13 nM
B4 (UGT1A9),Oc1ccc(I)cc1,steady-state kinetics,,"pH 7.4, 37 °C",,Vmax/Km,148 µL/min/mg
B5 (CXCL9),"CXCR3 (Homo sapiens, UniProt P49682)","inhibition of forskolin-raised cAMP, agonist",HEK293,,,LogEC50,-7.9
TIMP2 N-terminal domain S4E/V6R/V18M/I35V/N38Q/S68N/V71N/H97R,MMP14 fragment (Homo sapiens),"fluorogenic substrate cleavage, inhibitor, enzyme inhibition assay",,apparent,,Ki,0.89 nM
STEP61 (Rattus norvegicus),itself,pNPP dephosphorylation,,"hippocampus, aged rats","baseline: young rats, higher = more activity",phosphatase activity,40.7%
VPLPAGGGTVLTKMYPRGNHWAVGHLM-NH2 (GRP mature (UniProt P07492); C-terminal amide),"GRPR E175A (Homo sapiens, UniProt P30550)",calcium mobilization,"peptide, CHO",,"baseline: wild-type receptor, higher = greater loss",signalling decrease,14 fold
"WRN (Homo sapiens, UniProt Q14191)","EXO1 (Saccharomyces cerevisiae, UniProt P39875)",co-IP,yeast,"6 h, added: MMS 0.3 mM","baseline: untreated cells, higher = more co-precipitation",relative co-IP,1.7 fold
B6 (CDKN1A 9-84 del46-48),CDK4/CCND1,"Cdk4/cyclin D1 kinase activity, inhibitor",,,"baseline: wild-type p21-KID, higher = weaker inhibition",relative IC50,> 40 fold
KIF15 Coil-1 (Homo sapiens),"tubulin alpha/beta microtubules, E-hook removed (Bos taurus)",optical trap rupture assay,,,,bond lifetime under load,5.2 s
Rigi fragment (Mus musculus),"Trim25 440-630 D488A (Mus musculus, UniProt Q61510)",IFNβ reporter,HEK-293T,,"baseline: wild type TRIM25, higher = greater loss of enhancement",reduction of IFNβ induction,31 % reduction
"BRD4 (Homo sapiens, UniProt O60885)","TWIST1 (Homo sapiens, UniProt Q15672)",Gal4-luciferase reporter,,added: BRD4,"baseline: control, higher = more activity",reporter activity,8 fold
ribosomes whole ribosome (Rattus norvegicus),"CRIP3 active 22-286 del163-164/del167-189 (Zea mays, UniProt P28522)",SPR,,60 nM,,dissociation end response,60 RU
"CALM1 holo (Homo sapiens, UniProt P0DP23)","Nos1 (Rattus norvegicus, UniProt P29476)",optical stopped-flow,,"CaM not pre-bound, added: NADPH, holo CaM",,"flavin reduction rate, fast phase",132 s⁻¹
"IGF2 (Homo sapiens, UniProt P01344)",IGF1R (Gallus gallus),process branching,embryonic spinal motoneurons,0.1-10 nM,"baseline: no hormone, higher = more branching",branching points per neuron,1.45
"Cdk4 (Mus musculus, UniProt P30285)","Ink4c (Mus musculus, UniProt Q60772)",pulse-chase,293T,molecule co-expressed,"baseline: partner alone, higher = more stable partner",half-life,> 3 fold
dulaglutide Fc fusion,"GLP1R (Homo sapiens, UniProt P43220)","cAMP-driven luciferase, agonist",,,,EC50,0.00666 nM
"C5a (Homo sapiens, UniProt P01031)","C5AR1 (Homo sapiens, UniProt P21730)",flow cytometry,"granulocytes, whole blood","210 nM, added: C5a","baseline: non-activated control, higher = more expression",CD11b expression,1.5 fold

# Excerpt of the above:
Substance,target or system,assay,system,setting,scale,quantity,result
STEP61 (Rattus norvegicus),itself,pNPP dephosphorylation,,"hippocampus, aged rats","baseline: young rats, higher = more activity",phosphatase activity,40.7%
VPLPAGGGTVLTKMYPRGNHWAVGHLM-NH2 (GRP mature (UniProt P07492); C-terminal amide),"GRPR E175A (Homo sapiens, UniProt P30550)",calcium mobilization,"peptide, CHO",,"baseline: wild-type receptor, higher = greater loss",signalling decrease,14 fold
